Measured values gathered from unrelated publications.
Parts stem from different laboratories: compare values within a part only.

Sample 1
Target: Interferon regulatory factor 5, full length, phosphomimetic (IRF5, Homo sapiens, UniProt Q13568-2, residues 1-514, K96S/S451D/S453D/S456D/S462D)
Technique: protein-binding microarray
Form: double-stranded DNA, one strand shown
Medium: in vitro
Tested at: 250 nM
Setting: 60-bp whole probe
Together with: salmon DNA 0.4 mg/ml
Baseline: random background probes
Reading: higher = stronger binding
Endpoint: log fluorescence
Constant ends, left off below: GCCTAGCAC … GTCTTGATTCGCTTGACGCTGCTG
TTAGGTCCCCTTATCCTTTAGTGCTAG: -0.194 z-score
ACCACTTTCCATTTCTGTTTGTGCTAG: 3.88 z-score
TTAGGTTTCGACACTGGGTAAGTGCTA: 6.15 z-score
TCAACTTTCTCTGCTCTTTTCGTGCTA: 2.62 z-score
GACGAACTGGGGTATCGGGACGTGCTA: 0.393 z-score
ATAGATATCGGGACTGGATTAGTGCTA: 1.22 z-score
GACGGTCTCCTTCTCTTGACGTGCTAG: -0.108 z-score
TTGGTTCTTATCCTTCCCCTCGTGCTA: 0.239 z-score
TTAGGTTTCGACACTCGGTTAGTGCTA: 5.7 z-score
GACGATCTCATACTGGAGACGTGCTAG: -0.279 z-score
GACGATTTCAGTTCCGTGACGTGCTAG: 1.12 z-score
TTATTTATAAATTATCTTTAAGTGCTA: 1.01 z-score
ATAGGTTTCGGTATCGGTTAGTGCTAG: 10.9 z-score
GACGGTTTCGGTTTCCGGACGTGCTAG: 10.1 z-score
TTTTTTTCCTAATTGAACCCGTGCTAG: 1.3 z-score
TCAGTTCTCTTTTATTTACTGTGCTAG: 1.08 z-score
GACGCTTTCCTACTGCTGACGTGCTAG: 0.429 z-score
TTAGGTCTCCTTCTCTTTTAGTGCTAG: 0.178 z-score
GACCATTTCGGGTATCGAGACGTGCTA: 3.96 z-score

Sample 2
Target: RING finger protein unkempt homolog, zinc fingers 1-6, SBP tag (UNK, Homo sapiens, UniProt Q9C0B0, residues 30-357)
Sequence of UniProt Q9C0B0 (30-357, looked up): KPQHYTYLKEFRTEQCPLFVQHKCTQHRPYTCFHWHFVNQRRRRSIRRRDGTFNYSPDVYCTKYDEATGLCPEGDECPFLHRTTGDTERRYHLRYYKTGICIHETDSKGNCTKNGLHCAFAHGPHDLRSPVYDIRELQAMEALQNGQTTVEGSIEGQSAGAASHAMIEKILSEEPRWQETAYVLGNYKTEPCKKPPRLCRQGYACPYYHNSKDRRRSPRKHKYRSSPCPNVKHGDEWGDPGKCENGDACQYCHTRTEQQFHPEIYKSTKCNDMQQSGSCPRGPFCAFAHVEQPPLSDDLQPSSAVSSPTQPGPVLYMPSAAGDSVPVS
Technique: RNA Bind-n-Seq
Form: RNA
Medium: in vitro
Tested at: 100 nM
Setting: RNA with constant flanks, vertebrate orthologous sites, ends assumed
Baseline: input RNA pool
Reading: higher = stronger binding
Endpoint: bound/input enrichment
Constant ends, left off below: GGGAGUUCUACAGUCCGACGAUC … CAACAGAGGAUUGAGCAUCA
AGAAAAUUUUAACCAAGAACCUGAAGGUAGAAAUACAGGACCAUGGUUAUCUUCCUCACUUAGAAAUAGAUGCACACCUUUGUUCUCUAGAAGGAGACGAGAGGGACGAGAUGAAUCUUC: 0.802 ratio
UCUCUCAUUUUAUAUGUCCAAAAAAGGUUUUUGAAUUUUUAAAUACUUGCUAGUUUUAGUUAGCUCUGCCCUCAUGAAGUAUUACUAUAAUUCACCACAAACAUAUCUGUCUGAAUUACU: 0.643 ratio
AAGGAUCAAAAAUUCAAGACCAUCCUAAGCUACAUUCCAAGUUUGAGGCCAUCUUCAGCUACAUGAGACCGGGAUAGGGUGGGUAGGGAAGAGCCACAUGUAGAUCAUGGAAGCUCAGGA: 1.16 ratio
UUCAGGCACAACUGACUGGUUCACAGCAUUCCUUACACAGUUAUCUAUCAAAUGCAAGUGGGGUUAAUUUUCAGGAAACAAGCAGGCAGUCAUCUUUAUCCUGUAGCCCAAUUGGAGAGU: 1.07 ratio
UUGUGUAGUUUUGUAUUUUCAUGCAAAAAUCUUACUGUACUUGAAUGUCUUUAUUUUAUUAAAUGUGUUUAAAUUUUUGGUUAUUAUAUCCUAGAAUCGCUGUAAGUAUACAUGUCGCAG: 0.536 ratio
CUCUAUGGGCCUCGCAGAGUUGAAAUAAUGGAAGAGGAAAGUGAAUAGUGAUCUUCAUUUUAGUAUUUAUGCUUAGGUAUGAAAAUAAAUGUUAUUUGUUGAUUAUUUCUAUAAUCCAGA: 0.692 ratio
UUUUGUUUUGUUUUGUUUUCUUUUUUUUUUAUCCUCACCCCCCUCCCUUGAUUUUGGUUUCAGGGCUGGGUGGGCUGUGCACAUGCCUCUGAGACCAGAACUGUCUGGUUCAUCUGUACU: 0.564 ratio
GCAAUGAAAAAGCAGCCCUUCUCCCAGCCCCCUUUUCACUAGGAGAUACAAACAUUACCGUAGAAGAGCAAUUAAACUCAAUAAAUUUAUCUUUUCAGGAUGAUCCAGACUCCAGUACCA: 1.55 ratio

Sample 3
Target: Centromere-binding protein 1, full length, N-terminal tag (CBF1, Saccharomyces cerevisiae, UniProt P17106, residues 1-351)
Sequence of UniProt P17106 (whole entry, looked up): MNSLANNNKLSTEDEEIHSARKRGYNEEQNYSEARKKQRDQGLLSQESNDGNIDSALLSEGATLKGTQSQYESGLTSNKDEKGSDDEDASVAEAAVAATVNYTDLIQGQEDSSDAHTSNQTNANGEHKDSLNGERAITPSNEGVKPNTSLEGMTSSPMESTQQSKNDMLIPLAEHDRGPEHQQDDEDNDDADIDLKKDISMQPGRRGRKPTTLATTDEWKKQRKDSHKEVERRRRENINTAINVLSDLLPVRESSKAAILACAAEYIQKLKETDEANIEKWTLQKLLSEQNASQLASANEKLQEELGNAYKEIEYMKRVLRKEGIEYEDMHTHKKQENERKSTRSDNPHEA
Technique: protein-binding microarray
Form: double-stranded DNA, one strand shown
Medium: in vitro
Tested at: 0.8 µM
Setting: whole 60-bp probe, no competitor
Reading: higher = stronger binding
Endpoint: fluorescence intensity
Constant ends, left off below: … GTCTTGATTCGCTTGACGCTGCTG
GAACGTCAAAGACAACACGTTGGCAAAGGTAAGTAG: 598 a.u.
CCTAACTACTATAATCACCTGAGATAGCTTCGTACA: 683 a.u.
CTAAGAGCAGAAAGATACATCAGAACAATAGTATTC: 520 a.u.
CTATTTTTTCAAAGGCACGCGTGTCCTTTTTTGTTC: 807 a.u.
GAAAATATGTAGGTAAACGTGTCCATAAAATGGTAG: 716 a.u.
CTAATAAACAGCGCTGACGTGCTTGGACTTTGTTTC: 524 a.u.
GAAGTCAACAAGCATCACCAGAGACGCCTATTATAG: 515 a.u.
CTATTGTTTATTTACAAGCTGATGTAGAATTACTTC: 584 a.u.
CTACAGTTTGAAAGAAACGTGAAAATTATTTTTTTC: 623 a.u.
GAATCCTTGGGAGATCACGGATGCATCGAGAAGTAG: 656 a.u.
TGTACGAAGCTATGTGGTGTGTGTATAGTAGTTAGG: 564 a.u.
CTAAGGAATGCGATGGAGGTGATGCTAGTGTGGTTC: 530 a.u.
GAATCGTTCTGCGAGAGCGTGTCTAAAGATAAGTAG: 564 a.u.
CTATACGTAATTGGGCTCGTGGGACCAAAAGGCTTC: 536 a.u.
TGTACGAAGCTATTCCGTGCGCATATAGTAGTTAGG: 497 a.u.
GAATTGTACATTCATGTGATAATTTGACGCGGATAG: 1140 a.u.
CTACAGTCTTATATGCGCACGCCAGCAAAATCTTTC: 559 a.u.
CTAAAGTGTTTTCTTGATGTTACTGCCCATGAATTC: 558 a.u.
CTAAATATATCAAATAACGTGAAATAATGTACCTTC: 633 a.u.

Sample 4
Target: RNA binding protein fox-1 homolog 2, RRM domain, GST-SBP tag (RBFOX2, Homo sapiens, UniProt O43251-10, residues 100-194)
Technique: RNA Bind-n-Seq
Form: RNA
Medium: in vitro
Tested at: 365 nM
Setting: natural RNA segment, single round, ends assumed
Baseline: no-protein control
Reading: higher = stronger binding
Endpoint: RBNS enrichment (R)
Constant ends, left off below: GGGAGUUCUACAGUCCGACGAUC … UGGAAUUCUCGGGUGCCAA
Residues (chain): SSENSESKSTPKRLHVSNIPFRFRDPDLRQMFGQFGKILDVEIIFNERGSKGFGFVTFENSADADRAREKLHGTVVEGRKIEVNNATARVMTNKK
CCUGCCUCGAGGACUGAUACUGCAGUGACUGCCGUCAGCUCCGACUGCCGCUGAGAAGGGUUGAUCCUGCAUCUGGGUUUGUUUACAGCAAUUCCUGGACUCGGGGGUAU: 0.62
UCACCAUUCUUACAGCCAAGUGGUUGCUGGUCCCCUCAUAACUUUUAGUUACUUAAGUUGAGUAAAUGUCUAAUUGUUUACAAACUAAAUUGACUAAAUAAGGUCAAGGA: 0.261
AACCCAUGACCAUUUACUAAGUGAAUGAUGUAUAUUUCCCAUUAUCAGAAGUAUAAUGAAGUUGGAAUAAAUUCUUUAAAGUUUACUAUGUUGCCAGUGGUUUCACACAA: 0.558
GUUAUUGUCCUUUUACAUCUUGUUAAAUAGCCAUUGCUUUUGAGAAUCAGAUAGUGUGUUGUUUAGGGGUUAAUUGUGUCUAUAUCUUUCAAAAACUUUUAUAUUAUGUA: 0.41
AAGACUGAGUGUUCAAACUACUGUACAUUUUUUUUCAAGUGCUAAAAAAUUAAACCAAGCAGCUUAACCAUGGUUUGUGCCUGUUCCUCUAGGAUGAACUCCUAUCCUGA: 0.541
UUUCAAAUAUUACCAGAUUAUCUCCUUAUGUAAAGGUAAAAUACUGCUUAAAAAUAUUUUCCUCACAAAAUUACUAUCAGGUCUGCCAUAAAUUCUUCCUAAGUUCUCUG: 0.44
GAAAAAACUUAAAUAUUUAUUUCUAUGCUUUGUUGCCUCUGAGAAUAAUGACAAUUUAUGAAUUUGUGUUUCAAAUUGAUAAAAUAUUUAGGUACAAAUAACAAGACUAA: 0.454
CCAAACUCUCUUUCCCCAUUUCUAUCUCCCAGCCCAGUCACAAAAAUACUCAGCUCCAUCAAGAGGAAUUGUGUCUAAGAGGAUACCCCUGUUAAUCUCCUUUUUUCUUG: 0.924

A few entries again (sample 4):
AACCCAUGACCAUUUACUAAGUGAAUGAUGUAUAUUUCCCAUUAUCAGAAGUAUAAUGAAGUUGGAAUAAAUUCUUUAAAGUUUACUAUGUUGCCAGUGGUUUCACACAA: 0.558
GUUAUUGUCCUUUUACAUCUUGUUAAAUAGCCAUUGCUUUUGAGAAUCAGAUAGUGUGUUGUUUAGGGGUUAAUUGUGUCUAUAUCUUUCAAAAACUUUUAUAUUAUGUA: 0.41
AAGACUGAGUGUUCAAACUACUGUACAUUUUUUUUCAAGUGCUAAAAAAUUAAACCAAGCAGCUUAACCAUGGUUUGUGCCUGUUCCUCUAGGAUGAACUCCUAUCCUGA: 0.541
